# Experimental data from different studies.
# Parts stem from different laboratories: compare values within a part only. Positions count from the first letter of the parent shown.

# Series 1 — technique: protein-binding microarray; form: double-stranded DNA, one strand shown; sample: in vitro; tested at: 250 nM; notes: 60-bp whole probe; added: salmon DNA 0.4 mg/ml; relative to: random background probes; direction: higher = stronger binding; shared flanks, not repeated: GCCTAGCAC … GTCTTGATTCGCTTGACGCTGCTG
# Target: Interferon regulatory factor 5, full length, phosphomimetic (IRF5, Homo sapiens, UniProt Q13568-2, residues 1-514, K96S/S451D/S453D/S456D/S462D)
Strand,log fluorescence [z-score]
TTAGGACTGGGCATCGGTTAGTGCTAG,-0.0863
TTAGGGTTCGGTTCCGGTTAGTGCTAG,1.05
TCGTAAGCAAAAATGATTGGGTGCTAG,0.264
TCACTCACTCACAGACTCACGTGCTAG,0.242
GACGGACTGCTTCTCCTCACGTGCTAG,-0.543
TTAGGGTTCGGTTTCGGTTAGTGCTAG,8.69
TTAGAACTGGGGCCTGGATTAGTGCTA,-0.267
GGGGTTAGGGTCATTCATTCGTGCTAG,-0.368
TTAGATCTCGGGACTGGATTAGTGCTA,-0.232
TTAGGTTTCGACTAGCGGTTAGTGCTA,7.43
TTAGGTCTCGGTATCGGTAAGTGCTAG,3.74
TTAGGTATCGGGACTGGGTTTGTGCTA,1.84
TTAGATATCAGACTGGATTCGTGCTAG,0.212
GACGTTATCGACACTGGGGACGTGCTA,1.47
GACGTTTTTCATTTTTTTTTGTGCTAG,1.38
GACGATCTCAGTTTCGAGGCGTGCTAG,3.65
TCACCATTATATTTTAAACTGTGCTAG,0.692
CCGGGGGGCACAGGGTGAGGGTGCTAG,1.69
GAAGGACTGGGTCTCGGGACGTGCTAG,-0.691
TTAGGTTTCCTTCTACTTTAGTGCTAG,1.25
GACGGTACCGGTATCGGGACGTGCTAG,0.983
TCCTTTATGTCCTGTCTACATGTGCTA,0.471

# Series 2 — technique: RNA Bind-n-Seq; form: RNA; sample: in vitro; tested at: 365 nM; relative to: no-protein control; direction: higher = stronger binding
# Target: RNA binding protein fox-1 homolog 2, RRM domain, GST-SBP tag (RBFOX2, Homo sapiens, UniProt O43251-10, residues 100-194)
# Notes: natural RNA segment, single round, ends assumed
# Shared flanks, not repeated: GGGAGUUCUACAGUCCGACGAUC … UGGAAUUCUCGGGUGCCAA
# Construct (chain): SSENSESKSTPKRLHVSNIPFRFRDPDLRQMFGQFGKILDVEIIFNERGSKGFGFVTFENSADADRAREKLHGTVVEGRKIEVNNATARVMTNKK
Strand,RBNS enrichment (R)
CAGAGAUAAGCAAAACACAGUUCCUCUCGUGCAGAAGGUUAGAAUCUAUUUUUUUUUUUGACAGAGUCUUGCUCUGUCACCCAGGCUGGCGUACAGUGGUACGAUCUCAG,0.439
CCAGGCCAUGAUGGGCUGGCGACAGCCCGGCUGAGCUUCAGUGAGGUGCCACCAGCACCCGUGCCUCCGAAGACCGCUCGGGCAUUCCGCCUGCGCCCUGGGACAGCGGA,0.369
AUUGUGAAAGCUCACAGGGGUGUUUUUUGGAAUCAUUUGCUGAGUCAUUUUCUCAAAUCAUAUUCCAUUGUAUCAGUUAACAUAUAGUUUUAAAUGUAUGUAUUAUAAAU,0.529
UGGACACCAUGCUGGGCCUGCUGCAGUCUGACCUCAGCCGUCGUGGUGUCCCCACACAGGCCAAAGGCCUCUGUGGCUCCUGCAAUAAACCUAUAGCUGGGCAAGUGGUU,0.386
GGCUUGUGCCACUCAAACACUAGUGAAAGGGUAUGUACAACCGCAACAUCAGGCCAGGACACCAUUUAUUUAACCAAGUAAUGGAGGAGAGUGAAACAUUUUCCAAGGCC,0.209
CAAGGUGAAGCAUAAAGAGUCAGCACCAGUGCUUACGUGGCCCCACUGCAUUGUCAGCACUGACCUUGCUUGGUCCUUUCCCUCCUGCUGUCCCUCAGUGCCUUCUCUCA,0.376
AGGGCUACUUUGCUUCUUAAUGUAGGCCUACUGUGCACACCACACACUCUCUCUGAGGGACUGUAGCUAUUAGAUACUGUCCUCACACCCUCGAGCUACCAGCCAGGGCU,0.218
AUCAAGGCGGUAAAUCAAGUGGAAAAAGCGUCGGGUUCAAGGGGAGAACUCUGAUUGUGGGUAAUCCAUAAGCUUCCUCUACAGGCUCCCCGCUUGGUUCUCACUUCUGC,0.255
UGGGGAAGCUGCCGCCCACGGGCUCUGCCCCUUCCAGCUGGAGCCGCCCGUGCCUCCAGGGGCCAAGAGGAUGAUGUCGUGGCCUCCAUUCUCGUUUCUAUGCAGCCCCA,0.456
CCCAAGGCACCAGUCACACAAGCUGAUGGGCGUCUUGGCUCUGCCGUCAUGUGGAUGUUAUUGUCGCGCGCGUCUAUAAUUACAAGGUUUUAUUCCUAUUUAAUGUUAUU,0.307
GUAAUGGGAAUUGAUCAGUGCCACCACCCUUGACCCCAACUACCAUCCCAGAUGCCCAGAUUCCAGUCCUGGAGUUUUAUUCUCUCAGCUUGAUCCUUUGACCAAGAAGA,0.347
UUUGCCCGAUGGAUUUUGAAAACAUUUAAAAAAAAAAAAAAAAAGCCUUAUCUUGUGGCCUUCCAAAAUAGGUUGUUUGCCUGUGUGGAGACAACAGUGCGGGAGUCCUG,0.638

# Series 3 — technique: universal PBM; form: double-stranded DNA, one strand shown; sample: in vitro; tested at: 600 nM; direction: higher = stronger binding
# Target: Sal-like protein 4, full length isoform A (SALL4, Homo sapiens, UniProt Q9UJQ4, residues 1-1053)
# Sequence of UniProt Q9UJQ4 (whole entry, looked up): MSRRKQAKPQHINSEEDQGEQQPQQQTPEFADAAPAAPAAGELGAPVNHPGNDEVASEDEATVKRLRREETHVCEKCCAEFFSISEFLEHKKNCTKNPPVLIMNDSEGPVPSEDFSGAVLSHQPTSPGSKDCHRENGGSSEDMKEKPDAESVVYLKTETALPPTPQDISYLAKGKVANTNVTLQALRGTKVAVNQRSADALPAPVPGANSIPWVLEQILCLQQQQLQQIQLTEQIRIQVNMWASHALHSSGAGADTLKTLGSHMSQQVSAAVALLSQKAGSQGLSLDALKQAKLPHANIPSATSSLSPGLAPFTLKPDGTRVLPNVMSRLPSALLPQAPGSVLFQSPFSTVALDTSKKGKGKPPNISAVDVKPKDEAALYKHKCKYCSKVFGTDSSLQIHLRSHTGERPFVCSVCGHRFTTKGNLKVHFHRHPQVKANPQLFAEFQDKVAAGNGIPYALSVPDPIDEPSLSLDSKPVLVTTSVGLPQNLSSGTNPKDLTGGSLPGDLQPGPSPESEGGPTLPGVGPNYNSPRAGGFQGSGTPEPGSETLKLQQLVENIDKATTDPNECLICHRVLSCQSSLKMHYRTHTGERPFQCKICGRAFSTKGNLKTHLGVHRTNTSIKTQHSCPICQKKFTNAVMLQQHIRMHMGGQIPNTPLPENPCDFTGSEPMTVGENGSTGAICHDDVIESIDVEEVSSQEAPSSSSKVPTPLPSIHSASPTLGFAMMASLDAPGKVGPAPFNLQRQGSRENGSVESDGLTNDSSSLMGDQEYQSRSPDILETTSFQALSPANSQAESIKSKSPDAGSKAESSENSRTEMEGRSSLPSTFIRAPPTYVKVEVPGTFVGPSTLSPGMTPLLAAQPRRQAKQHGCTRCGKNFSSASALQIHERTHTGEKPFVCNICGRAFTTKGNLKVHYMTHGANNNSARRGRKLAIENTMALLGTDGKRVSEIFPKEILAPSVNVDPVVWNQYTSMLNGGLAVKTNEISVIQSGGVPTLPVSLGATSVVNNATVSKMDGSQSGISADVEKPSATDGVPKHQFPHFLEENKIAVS
# Notes: 8-mer, flanks averaged, mean of replicates
Strand,E-score
TTGTGAAA,0.183
AACGGCGC,-0.383
TAAAGAAA,0.315
GTGGTATA,0.153
CTGAGGTC,-0.259
CAAGCTTA,-0.127
CACCTAGA,-0.175
CCGCTATA,0.122
ATGAGTAG,0.172
GGTCGCAC,-0.233
AAGGCGAG,-0.194
GTATACAA,0.282
AACCCCAC,-0.223
AACCCCCT,-0.199
ATTATTCC,0.249
ACTATGCC,0.124
CGACTGCC,-0.337
CCGGAGGC,-0.392
GTTTGAGA,0.0826
AGGGGGAC,-0.335
AAAAAGTG,0.162
TAATTTAA,0.324
CAATAGTA,0.187
TCTGCACA,0.127
ATGCGGAA,0.0267

# Series 4 — target: CCNE1, cyclin fold, Cln2 fusion (human); technique: yeast growth competition, sequencing; sample: yeast; notes: weak parent motif; relative to: not given; direction: higher = stronger binding
# Parent: LLGL2 docking peptide (human); KSLKKSLRQSFRR
Substitution,normalised enrichment score
Q9A,1.02
K4A,0.948
K1A,0.377
S6A,-0.0147
F11A,-0.129
S2A,0.606

# Series 5 — technique: aptamer microarray, sandwich; form: DNA with 2'F-ANA; sample: in vitro; tested at: 200 nM; added: Cy3 exosite-II aptamer, 400 nM; direction: higher = stronger binding; strand: GGTTGGTGTGGTTGG
# Target: Prothrombin, mature alpha-thrombin (F2, Homo sapiens, UniProt P00734)
# Notes: whole 15-mer aptamer, many near background
Modification,mean fluorescence intensity
2'F-ANA at 1 3 5 7 13 14,44.7 a.u.
2'F-ANA at 1 3 6 7 10 11,76.5 a.u.
2'F-ANA at 2 3 4 5 6 9 12 13 15,105 a.u.
2'F-ANA at 2 3 4 6 8 10,190 a.u.
2'F-ANA at 2 3 4 6 7 8 11 13 14,274 a.u.
2'F-ANA at 1 5 7 10 11 13 14 15,52.7 a.u.
2'F-ANA at 1 2 3 5 6 7 8 9 10 14 15,69.5 a.u.
2'F-ANA at 1 2 3 5 6 7 11 13,71.5 a.u.
2'F-ANA at 4 5 6 8 9 10 11 13 14,48.4 a.u.
2'F-ANA at 1 4 7 8 11 13,106 a.u.
2'F-ANA at 2 4 7 8 9 15,360 a.u.
2'F-ANA at 1 2 4 5 8 11 12 13,69.7 a.u.
2'F-ANA at 1 2 5 6 9 10 12 14,50.3 a.u.
2'F-ANA at 2 4 7 8 11 12 14 15,161 a.u.
2'F-ANA at 2 3 4 6 7 8 9 10 12 13,271 a.u.
2'F-ANA at 2 3 4 5 7 10 11 12 15,58.1 a.u.
2'F-ANA at 1 2 3 5 7 8 12 13,110 a.u.
2'F-ANA at 8 11 12 13 14,232 a.u.
2'F-ANA at 2 4 5 8 9 10 15,73.3 a.u.
2'F-ANA at 3 4 7 8 9 11 12,921 a.u.
2'F-ANA at 1 3 4 7 8 9 12 14,114 a.u.

# A few entries again (series 3):
Strand,E-score
TAAAGAAA,0.315
GTGGTATA,0.153
CTGAGGTC,-0.259
CAAGCTTA,-0.127
CACCTAGA,-0.175
CCGCTATA,0.122
ATGAGTAG,0.172
